Measured values from different studies.
A part holds a random share of what one study measured. Substitutions count along the parent as printed.
UniProt Q9SKN5, sequence (whole entry, looked up): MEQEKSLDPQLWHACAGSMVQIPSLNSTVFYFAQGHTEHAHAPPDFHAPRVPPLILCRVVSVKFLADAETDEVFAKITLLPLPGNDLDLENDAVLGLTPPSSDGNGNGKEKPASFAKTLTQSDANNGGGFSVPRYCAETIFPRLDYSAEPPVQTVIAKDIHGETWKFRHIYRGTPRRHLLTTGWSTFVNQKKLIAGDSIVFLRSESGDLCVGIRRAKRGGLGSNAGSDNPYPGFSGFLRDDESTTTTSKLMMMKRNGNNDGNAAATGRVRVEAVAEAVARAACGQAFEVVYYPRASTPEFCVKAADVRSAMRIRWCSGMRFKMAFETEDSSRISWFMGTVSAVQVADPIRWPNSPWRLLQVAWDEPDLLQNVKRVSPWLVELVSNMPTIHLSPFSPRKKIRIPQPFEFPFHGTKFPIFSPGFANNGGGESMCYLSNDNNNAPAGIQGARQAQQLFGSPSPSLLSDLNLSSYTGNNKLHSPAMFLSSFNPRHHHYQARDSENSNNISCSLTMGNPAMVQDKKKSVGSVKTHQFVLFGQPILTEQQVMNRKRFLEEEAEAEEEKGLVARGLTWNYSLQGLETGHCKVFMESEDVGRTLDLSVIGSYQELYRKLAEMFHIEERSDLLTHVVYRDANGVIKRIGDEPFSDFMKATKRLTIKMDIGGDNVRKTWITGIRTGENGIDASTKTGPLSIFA
UniProt Q9C5X0, sequence (whole entry, looked up): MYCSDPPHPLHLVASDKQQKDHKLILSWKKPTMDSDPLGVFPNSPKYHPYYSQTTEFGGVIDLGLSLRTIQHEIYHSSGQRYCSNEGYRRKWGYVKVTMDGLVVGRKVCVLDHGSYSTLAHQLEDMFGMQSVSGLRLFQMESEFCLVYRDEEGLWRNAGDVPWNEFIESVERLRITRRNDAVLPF
UniProt Q8RYC8, sequence (whole entry, looked up): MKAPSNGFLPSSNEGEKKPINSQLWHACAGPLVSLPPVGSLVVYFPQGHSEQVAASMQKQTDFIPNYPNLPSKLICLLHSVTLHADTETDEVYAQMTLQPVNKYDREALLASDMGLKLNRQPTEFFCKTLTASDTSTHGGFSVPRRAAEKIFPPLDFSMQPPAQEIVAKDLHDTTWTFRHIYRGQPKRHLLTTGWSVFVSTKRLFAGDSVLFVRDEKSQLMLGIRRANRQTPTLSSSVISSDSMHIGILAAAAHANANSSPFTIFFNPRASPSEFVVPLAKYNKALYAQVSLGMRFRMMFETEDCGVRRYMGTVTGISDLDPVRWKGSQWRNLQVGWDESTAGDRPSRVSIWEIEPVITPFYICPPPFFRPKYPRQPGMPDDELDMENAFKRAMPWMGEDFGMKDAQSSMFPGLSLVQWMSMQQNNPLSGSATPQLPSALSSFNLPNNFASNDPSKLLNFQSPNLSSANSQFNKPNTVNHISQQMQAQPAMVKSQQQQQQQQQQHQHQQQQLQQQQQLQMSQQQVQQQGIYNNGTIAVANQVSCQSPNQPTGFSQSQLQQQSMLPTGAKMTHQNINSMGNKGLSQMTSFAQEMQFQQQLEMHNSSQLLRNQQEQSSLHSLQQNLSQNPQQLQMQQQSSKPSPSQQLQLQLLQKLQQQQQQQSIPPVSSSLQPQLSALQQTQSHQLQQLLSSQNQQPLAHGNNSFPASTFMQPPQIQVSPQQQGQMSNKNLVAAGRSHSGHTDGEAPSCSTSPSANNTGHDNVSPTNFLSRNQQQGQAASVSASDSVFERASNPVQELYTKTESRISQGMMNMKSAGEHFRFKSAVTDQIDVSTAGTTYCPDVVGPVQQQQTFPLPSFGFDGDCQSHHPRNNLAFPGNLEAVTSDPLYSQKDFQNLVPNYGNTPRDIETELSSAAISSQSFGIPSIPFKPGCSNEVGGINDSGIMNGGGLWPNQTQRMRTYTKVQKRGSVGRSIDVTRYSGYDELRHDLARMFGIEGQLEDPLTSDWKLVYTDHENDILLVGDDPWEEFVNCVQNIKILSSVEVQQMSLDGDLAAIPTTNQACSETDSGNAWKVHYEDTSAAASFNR
UniProt Q9C966, sequence (whole entry, looked up): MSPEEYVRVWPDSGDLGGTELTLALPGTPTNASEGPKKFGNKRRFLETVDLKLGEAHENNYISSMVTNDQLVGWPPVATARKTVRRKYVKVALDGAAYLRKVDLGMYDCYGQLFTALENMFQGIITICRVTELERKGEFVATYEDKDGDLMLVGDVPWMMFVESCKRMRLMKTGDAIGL
UniProt Q9C5W9, sequence (whole entry, looked up): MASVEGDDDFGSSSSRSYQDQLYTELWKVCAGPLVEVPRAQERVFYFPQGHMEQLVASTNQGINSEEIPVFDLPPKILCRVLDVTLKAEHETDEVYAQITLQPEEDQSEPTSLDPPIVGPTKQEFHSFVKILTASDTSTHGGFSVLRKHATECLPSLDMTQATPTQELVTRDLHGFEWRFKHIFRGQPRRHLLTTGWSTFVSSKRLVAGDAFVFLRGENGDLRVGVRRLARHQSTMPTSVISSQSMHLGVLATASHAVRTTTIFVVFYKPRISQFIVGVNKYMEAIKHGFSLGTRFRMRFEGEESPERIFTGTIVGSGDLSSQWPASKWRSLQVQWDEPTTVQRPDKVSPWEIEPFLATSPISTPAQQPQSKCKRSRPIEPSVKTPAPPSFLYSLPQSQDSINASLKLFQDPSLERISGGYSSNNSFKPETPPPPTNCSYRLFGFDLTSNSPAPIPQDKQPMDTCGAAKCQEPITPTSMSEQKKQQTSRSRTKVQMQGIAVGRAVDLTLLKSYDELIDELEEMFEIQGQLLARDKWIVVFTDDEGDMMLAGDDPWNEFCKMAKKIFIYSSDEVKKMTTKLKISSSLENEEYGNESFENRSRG
UniProt O23661, sequence (whole entry, looked up): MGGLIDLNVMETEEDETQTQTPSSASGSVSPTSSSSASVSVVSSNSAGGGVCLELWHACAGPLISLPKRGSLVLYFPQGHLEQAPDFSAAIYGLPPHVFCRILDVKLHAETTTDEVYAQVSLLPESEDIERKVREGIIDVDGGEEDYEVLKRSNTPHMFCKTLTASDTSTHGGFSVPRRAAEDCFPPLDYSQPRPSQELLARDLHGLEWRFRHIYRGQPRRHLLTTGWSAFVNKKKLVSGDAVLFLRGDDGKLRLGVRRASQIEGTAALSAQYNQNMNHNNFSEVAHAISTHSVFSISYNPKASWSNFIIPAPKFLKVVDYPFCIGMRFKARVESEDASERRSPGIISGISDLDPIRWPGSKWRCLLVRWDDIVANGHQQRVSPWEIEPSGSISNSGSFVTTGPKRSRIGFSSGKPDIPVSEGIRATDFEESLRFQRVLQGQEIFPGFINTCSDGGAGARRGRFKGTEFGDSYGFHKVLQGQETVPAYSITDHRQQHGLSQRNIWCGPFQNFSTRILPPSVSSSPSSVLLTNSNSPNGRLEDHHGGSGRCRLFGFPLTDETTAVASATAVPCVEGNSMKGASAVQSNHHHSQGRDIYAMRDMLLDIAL
UniProt O24410, sequence (whole entry, looked up): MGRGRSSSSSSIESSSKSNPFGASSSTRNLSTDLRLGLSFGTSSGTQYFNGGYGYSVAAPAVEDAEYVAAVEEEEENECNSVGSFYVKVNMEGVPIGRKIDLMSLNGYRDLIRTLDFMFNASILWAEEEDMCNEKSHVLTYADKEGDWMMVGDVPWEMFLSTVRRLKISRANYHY

Sample 1
Target: CCNA2, cyclin fold, Cln2 fusion (human)
Method: yeast growth competition, sequencing
Matrix: yeast
Notes: strong parent motif
Reference: not given
Reading: higher = stronger binding
Measurement: normalised enrichment score
Starting sequence: CDKN1A docking peptide (human); SKACRRLFGPVDS; partner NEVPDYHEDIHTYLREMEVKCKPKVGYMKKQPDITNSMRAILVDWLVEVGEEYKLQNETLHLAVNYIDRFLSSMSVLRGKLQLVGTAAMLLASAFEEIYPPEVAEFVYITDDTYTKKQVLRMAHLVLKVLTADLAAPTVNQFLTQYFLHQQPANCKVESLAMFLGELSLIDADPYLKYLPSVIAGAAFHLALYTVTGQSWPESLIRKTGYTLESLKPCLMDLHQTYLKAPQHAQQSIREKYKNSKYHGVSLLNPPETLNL
G9T: 5.6
R6N: 5.76
R5L: 0.96
V11M: 5.58
D12L: 4.7
R6C: 4.9
K2Y: 4.21
V11I: 5.89
L7W: 0.782
P10K: 4.81
K2M: 4.83
P10S: 5.69
R6V: 4.56
R5Q: 2.09
L7A: 0.355
R5A: 1.03
L7H: 0.578

Sample 2
Target: Prothrombin, mature alpha-thrombin (F2, Homo sapiens, UniProt P00734)
Method: aptamer microarray, sandwich
Form: DNA with 2'F-ANA
Matrix: in vitro
Concentration: 200 nM
Notes: whole 15-mer aptamer, many near background
Together with: Cy3 exosite-II aptamer, 400 nM
Reading: higher = stronger binding
Measurement: mean fluorescence intensity
Oligonucleotide: GGTTGGTGTGGTTGG
2'F-ANA at 1 2 5 9 10 11 15: 49.7 a.u.
2'F-ANA at 1 2 4 5 7 9 10 11 13 15: 55.7 a.u.
2'F-ANA at 4 5 7 8 12 14 15: 51 a.u.
2'F-ANA at 1 2 4 7 12 14 15: 87.1 a.u.
2'F-ANA at 1 3 4 6 7 9 10 13 14: 63.1 a.u.
2'F-ANA at 2 8 9 13: 366 a.u.
2'F-ANA at 2 3 4 5 10 11 13 14: 45.5 a.u.
2'F-ANA at 1 2 3 6 8 13 14 15: 72.7 a.u.
2'F-ANA at 4 5 6 7 8 9 12 15: 134 a.u.
2'F-ANA at 3 4 5 8 9 10 15: 49.3 a.u.
2'F-ANA at 3 4 5 9 10 11 13 14: 70.6 a.u.
2'F-ANA at 3 4 5 6 8 13 15: 63.6 a.u.
2'F-ANA at 1 4 5 6 8 12 14: 45.6 a.u.
2'F-ANA at 4 8 10 12 13 15: 80.8 a.u.
2'F-ANA at 1 7 10 15: 56.1 a.u.
2'F-ANA at 5 6 9 10 12 15: 55.2 a.u.
2'F-ANA at 1 6 10 11 13 15: 53.1 a.u.
2'F-ANA at 1 3 11 12 13 14: 112 a.u.
2'F-ANA at 3 4 8 10 11 13: 316 a.u.

Sample 3
Target: Sal-like protein 4, full length isoform B (SALL4, Homo sapiens, UniProt Q9UJQ4-2, residues 1-616)
Method: universal PBM
Form: double-stranded DNA, one strand shown
Matrix: in vitro
Concentration: not given
Notes: 8-mer, flanks averaged, mean of replicates
Reading: higher = stronger binding
Measurement: E-score
Construct (chain): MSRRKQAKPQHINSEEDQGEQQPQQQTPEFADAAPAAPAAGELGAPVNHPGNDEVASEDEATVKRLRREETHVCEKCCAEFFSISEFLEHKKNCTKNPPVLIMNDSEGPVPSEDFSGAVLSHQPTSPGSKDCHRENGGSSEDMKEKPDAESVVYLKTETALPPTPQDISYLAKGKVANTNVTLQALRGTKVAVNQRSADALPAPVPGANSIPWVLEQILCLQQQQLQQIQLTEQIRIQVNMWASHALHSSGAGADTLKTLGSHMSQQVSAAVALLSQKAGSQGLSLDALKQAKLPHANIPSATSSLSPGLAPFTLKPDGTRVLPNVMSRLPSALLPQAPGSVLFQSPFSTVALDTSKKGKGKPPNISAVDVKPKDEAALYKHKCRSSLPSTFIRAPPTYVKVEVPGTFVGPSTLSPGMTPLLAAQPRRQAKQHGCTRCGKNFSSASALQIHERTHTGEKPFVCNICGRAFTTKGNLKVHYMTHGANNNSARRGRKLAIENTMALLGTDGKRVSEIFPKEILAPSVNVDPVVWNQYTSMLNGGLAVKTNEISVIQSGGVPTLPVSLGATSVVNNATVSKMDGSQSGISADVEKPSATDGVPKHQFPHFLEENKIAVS
GAAATTTA: 0.324
CTTAGCGC: -0.261
CGCCCGGC: -0.382
AACGAGTG: 0.102
CCATTAGG: -0.044
CATGACGG: -0.0747
AGAGGGGG: -0.143
AGCTCTAA: -0.0518
GTCCATGA: 0.0154
GCAATAGC: -0.0724
GTCACCAC: -0.173
ACCCATCC: -0.102
ACCGATCC: -0.264
ATTGCTGG: 0.0565
AATATCAG: 0.256
CATTTGCC: -0.143
AGAAAATA: 0.308
CCATCTCA: -0.159

Sample 4
Sequence: B1 (IAA12)
Method: two-hybrid
Reading: higher = firmer interaction
Measurement: positive tests
B1: IAA12 (Arabidopsis thaliana, UniProt Q38830); chain MRGVSELEVGKSNLPAESELELGLGLSLGGGAWKERGRILTAKDFPSVGSKRSAESSSHQGASPPRSSQVVGWPPIGLHRMNSLVNNQAMKAARAEEGDGEKKVVKNDELKDVSMKVNPKVQGLGFVKVNMDGVGIGRKVDMRAHSSYENLAQTLEEMFFGMTGTTCREKVKPLRLLDGSSDFVLTYEDKEGDWMLVGDVPWRMFINSVKRLRIMGTSEASGLAPRRQEQKDRQRNNPV
ARF18 482-602 (Arabidopsis thaliana, UniProt Q9C5W9); reference: out of 4 tests: 0
ARF19 948-1086 (Arabidopsis thaliana, UniProt Q8RYC8); reference: out of 4 tests: 4
ARF10 575-693 (Arabidopsis thaliana, UniProt Q9SKN5); reference: out of 4 tests: 0
IAA34 (Arabidopsis thaliana, UniProt Q9C5X0); reference: out of 2 tests: 1
ETT (Arabidopsis thaliana, UniProt O23661); reference: out of 4 tests: 0
IAA15 (Arabidopsis thaliana, UniProt Q9C966); reference: out of 4 tests: 2
IAA20 (Arabidopsis thaliana, UniProt O24410); weak activation fusion; reference: out of 4 tests: 2

Sample 5
Target: UBE2Q2 UBC core domain (UniProt Q8WVN8)
UniProt Q8WVN8, sequence (whole entry, looked up): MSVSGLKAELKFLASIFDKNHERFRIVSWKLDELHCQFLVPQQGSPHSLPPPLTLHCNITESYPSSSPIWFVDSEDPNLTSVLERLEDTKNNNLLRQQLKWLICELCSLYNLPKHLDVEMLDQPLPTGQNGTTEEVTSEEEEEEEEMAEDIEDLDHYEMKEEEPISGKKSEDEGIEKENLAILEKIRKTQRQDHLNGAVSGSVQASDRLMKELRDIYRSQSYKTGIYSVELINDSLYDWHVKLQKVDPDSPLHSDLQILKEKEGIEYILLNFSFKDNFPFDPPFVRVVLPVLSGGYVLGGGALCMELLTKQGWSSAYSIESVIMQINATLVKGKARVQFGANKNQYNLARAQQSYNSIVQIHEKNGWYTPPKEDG
Method: yeast two-hybrid
Matrix: yeast
Notes: mostly zero background
Reference: not given
Reading: higher = stronger interaction
Measurement: lacZ reporter activity
B2: TRIM43 RING domain (UniProt Q96BQ3); chain FSHAFQKELTCVICLNYLVDPVTICCGHSFCRPCLCLSWEEAQSPANCPACREPSPKMDFKT
B3: TRIM24 RING domain (UniProt O15164); chain EAARLNLLDTCAVCHQNIQSRAPKLLPCLHSFCQRCLPAPQRYLMLPAPMLGSAETPPPVPAPGSPVSGSSPFATQVGVIRCPVCSQECAERHII
B4: VPS41 RING domain (UniProt P49754); chain KGVLVDEENICESCLSPILPSDAAKPFSVVVFHCRHMFHKECLPMPSMNSAAQFCNICSAKNRGPGSAI
B5: TRIM13 RING domain (UniProt O60858); chain MELLEEDLTCPICCSLFDDPRVLPCSHNFCKKCLEGILEGSVRNSLWRPAPFKCPTCRKETSATGINS
B6: RNF208 RING domain (UniProt Q9H0X6); chain SSAAAGEPLECPTCGHSYNVTQRRPRVLSCLHSVCEQCLQILYESCPKYKFISCPTCRRETVLFTDYG
B7: TRIM5 RING domain (UniProt Q9C035); chain ILVNVKEEVTCPICLELLTQPLSLDCGHSFCQACLTANHKKSMLDKGESSCPVCRISYQPENIRP
B8: TRIML1 RING domain (UniProt Q8N9V2); chain LMENLREELTCFICLDYFSSPVTTECGHSFCLVCLLRSWEEHNTPLSCPECWRTLEGPHFQS
B2 (TRIM43 RING domain): 0
B3 (TRIM24 RING domain): 0
PAELEVQASECVVCLEREAQMIFLNCGHVCCCQQCCQPLRTCPLCRQDIAQRLRIY (LRSAM1 RING domain (UniProt Q6UWE0)): 0
FQGDVDEDLICPICSGVLEEPVQAPHCEHAFCNACITQWFSQQQTCPVDRSVVTVAHLRP (RNF41 RING domain (UniProt Q9H4P4)): 0
B4 (VPS41 RING domain): 0
B5 (TRIM13 RING domain): 0
B6 (RNF208 RING domain): 0
B7 (TRIM5 RING domain): 0
B8 (TRIML1 RING domain): 0

Sample 6
Target: ABI1, truncated, D143A, DHFR fusion (Arabidopsis thaliana)
Method: DHFR PCA, deep sequencing
Matrix: yeast
Notes: methotrexate growth selection, single substitutions
Together with: (+)-ABA 2500 µM
Reference: wild-type fitted maximum
Reading: higher = stronger binding
Measurement: relative binding score
Starting sequence: PYL1, truncated, DHFR fusion (Arabidopsis thaliana); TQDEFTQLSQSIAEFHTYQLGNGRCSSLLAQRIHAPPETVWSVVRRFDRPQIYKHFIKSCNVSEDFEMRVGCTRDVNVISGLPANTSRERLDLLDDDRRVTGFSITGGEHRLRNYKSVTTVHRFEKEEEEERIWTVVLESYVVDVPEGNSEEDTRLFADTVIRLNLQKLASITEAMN
R98Y: 100%
G21V: 96.2%
L28Y: 91.8%
D159H: 80.2%
R45S: 93.6%
E139H: 93%
L164Y: 95.1%
S104L: 80.7%
S117H: 60.1%
R132H: 104%
T86L: 92.3%
C60W: 30.6%
